Measurements from different studies.
A part holds a random share of what one study measured.

Sample 1
Target: RNA binding protein fox-1 homolog 2, RRM domain, GST-SBP tag (RBFOX2, Homo sapiens, UniProt O43251-10, residues 100-194)
Technique: RNA Bind-n-Seq
Molecule type: RNA
Matrix: in vitro
Concentration: 365 nM
Notes: natural RNA segment, single round, ends assumed
Baseline: no-protein control
Reading: higher = stronger binding
All sequences stand within: GGGAGUUCUACAGUCCGACGAUC … UGGAAUUCUCGGGUGCCAA
Residues (chain): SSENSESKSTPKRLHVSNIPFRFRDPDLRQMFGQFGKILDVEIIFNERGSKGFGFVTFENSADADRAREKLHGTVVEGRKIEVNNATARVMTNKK
Sequence	RBNS enrichment (R)
GUCUCCUUGACUUGUACCGCCUUCUCCUCUGUCCAGGAGGCCGGGAUCAGGCUGUUGCCAUGGAAGUUCAGGGCCAUAGACUGCCCCACUUAAACUCUUGUCAGUCUGGG	0.31
ACCUGUUACUGGACAUGUCUUAUUAAAUGGGUUGCUGUAUUAGGAUUAUAAACAUUUUUCAUUAUUGGAAAGUGUGAAGGGGACCUUCUGCAUACCUGUUUAGAACCAAA	0.268
UUCAACUCACCAGACACCUUUCUUUAGUUGAAAUAAACCAGCAUGACCUGGAGAUCAUGGUGACUGUAAGCUAAGUCUGUUUUCAUGCCAGAUUUCAGCCCCACCCAGAG	0.94
CAUGGUAGUGGGAACCAGACCAAUCACAAUGUUUUAUUGAAACAUAUUCCAUCGUUACAGGAUAGCGUUCGGUACACAGUGGCGGGUUUCUUUAGCUGCUGUGUUUAUUC	0.461
AGGCUUGCAGCAAUAUAGCCUGGACCCAGAAAAGGGAAAACGAUAAGGAAAUUCUGUCUGGUAGGUGCAAAGGGCUUCAUGGAUUUGGAAACCUGGAGGCAGGAACAUAG	0.542
AGCAGCGUUAGAGAGUGGGUUUGGUGGGUUGUGGAUAACCAAGAUGGCGUGAAGUAAUGGCAGUAGAAACCCAUGGACUUCUCUUGUUCUUUCUAUCGCUGUGGAUAAGA	0.826
GCCCUUGAGUGGGGCAGCCUCCUUGCCUGGAACUCACUCACUCUGGGUGCCUCCUCCCCAGGUGGAGGUGCCAGGAAGCUCCCUCCCUCACUGUGGGGCAUUUCACCAUU	0.283
CUUGUUUUGGCAGUACUGAAAUCAAAGGAGCUGGUUCUUCUUUUCUCCCAAUUAUUUUCAUAUGAAAGCACCUACAAUUAGCCUGUUAGUCCUAUUCAGAUACAUCAAAU	0.48
UACUUUGAACUGUCUCCUGCUUACAGGGGUGUAAUGGUUUCCUUUGACUAGAAGUCUAUUUGUGUUGUGGGGUGCGUGGGGAGAGCCAAGCAGGCAAAGCUGAACAUUUG	0.625
ACAGCGGAAAGUGGACCUGCCAGGCCGGGAGUGUGUCCCUCACCAACUAUGCACACAGCACUCGCUCUUAGCUCCUCUGUCCGGGCUACUAGGAGUGAGACCAGCUUCUG	0.292
UAUAGAUCGUCCCCCUGGAAACUGAGGCAUGAGCUCUUCCUCAGAAGUCUGUGAGGGUGAAUGCUAAAGGCUGGGAAGGGAGUGGGCUAGCCAGCUCAUGGAACGUAGGC	1.3
UUUAAGAACAUUUAUUUCCCCUUUUCACUUUAAAAAAUUAUGAUUAUUCCUAUUAUUGUUAUGAACCUUCUUAUUUUACAUUUGAGGGAUAAAGGCAAAUGAUUUGUGAG	0.546

Sample 2
Target: Ras GTPase-activating protein-binding protein 1, full length (G3BP1, Homo sapiens, UniProt Q13283)
Chain of UniProt Q13283 (whole entry, looked up): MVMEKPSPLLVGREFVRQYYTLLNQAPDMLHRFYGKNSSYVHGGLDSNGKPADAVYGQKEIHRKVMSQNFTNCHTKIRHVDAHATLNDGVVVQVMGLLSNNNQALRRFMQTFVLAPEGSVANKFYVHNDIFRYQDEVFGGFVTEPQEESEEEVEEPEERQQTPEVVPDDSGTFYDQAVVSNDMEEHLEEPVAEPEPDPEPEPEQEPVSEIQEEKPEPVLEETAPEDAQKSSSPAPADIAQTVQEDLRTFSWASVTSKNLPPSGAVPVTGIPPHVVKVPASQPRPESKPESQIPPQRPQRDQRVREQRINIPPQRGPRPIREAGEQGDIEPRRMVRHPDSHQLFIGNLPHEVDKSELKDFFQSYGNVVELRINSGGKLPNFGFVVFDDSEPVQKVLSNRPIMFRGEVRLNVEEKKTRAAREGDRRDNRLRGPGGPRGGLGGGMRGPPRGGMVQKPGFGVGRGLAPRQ
Technique: RNA Bind-n-Seq
Molecule type: RNA
Matrix: in vitro
Concentration: 200 nM
Notes: whole 134-nt RNA, ends assumed
Together with: 150 mM LiCl
Baseline: input library
Reading: higher = stronger binding
Library: 7-deaza-guanosine replaces G
All sequences stand within: GGGAGUUCUACAGUCCGACGAUC … UGGAAUUCUCGGGUGUCAAGG
Sequence	log2 enrichment
UGGCCCUGGUGGCAUGCGGGGAGGAAGAGGUGGCCUCAUGGAUCGUGGUGGUCCCGGUGGAAUGUUCAGAGGGGGCCGUGGUGGAGACAG	0.169
GCAGGAAGUAAAAACAAAUGGAAAUGCUUCGGAUAGUGGCAGGGGUGGGGGUUGCUAAGGAAAGGGUGGGAUGGUAGUGGGUAAAGAGUU	0.146
AAGUCCUGUGCUACACAUCGUAUGUACCGAAUCGGGAAAAAGGGAGGGUUUUUGGGAAAGUAUUAUGUUACGCCGUUCGGAUCUGCACUU	-1.01
AGUCCUGUGCUACACAUCGUAUGUACCGAAUCGGGAAAAAGGGAAAAAAAGGGUGGGAAAGUAUUAUGUUACGCCGUUCGGAUCUGCACU	-0.693
UUUUGAGGAAAGGAUGAAGGAGCUCAGAGAAGAGGUAAGGGUCUCCUAUCCUUCCCCUCUCCCCCAGAUUUGAGUUUUAUGUUAUGAAUC	-0.438
GUCCUGUGCUACACAUCGUAUGUACCGAAUCGGGGAAAAAAAGGGGAAAGGGGAGGGGAAAGUAUUAUGUUACGCCGUUCGGAUCUGCAC	0.317
AGUCCUGUGCUACACAUCGUAUGUACCGAAUCGGAAAGGAAAAAAAGGUUUUUUUGGAAAGUAUUAUGUUACGCCGUUCGGAUCUGCACU	-2.05
UAACUUUAGAGGAGGAUCUGAUCGAUAUGGCAGUGGACGUGGAUUUGGGGAUGGCUAUAAUGGGUAUGGAGGAGGACCUGGAGGUGGCAA	0.193
UCCUGUGCUACACAUCGUAUGUACCGAAUCGGGGUUUUUGGGGAAAAAAAGGGGUGGGGAAAGUAUUAUGUUACGCCGUUCGGAUCUGCA	-0.368
ACCAUGCAGGUGGGCAUCUUUGGGAAGUGGGGCAAGGGGGGGAUAAGGAGGGGGGUAACACUUUGGGAACAGGUGGUCCCAGGUCGUUUC	0.335
UAACUUUAGAGGAGGAUCUGAUGGAUAUGGCAGUGGACGUGGAUUUGGGGAUGGCUAUAAUGGGUAUGGAGGAGGACGUGGAGGUGGCAA	0.138

Sample 3
Target: Interferon regulatory factor 5, full length, phosphomimetic (IRF5, Homo sapiens, UniProt Q13568-2, residues 1-514, K96S/S451D/S453D/S456D/S462D)
Technique: protein-binding microarray
Molecule type: double-stranded DNA, one strand shown
Matrix: in vitro
Concentration: 250 nM
Notes: 60-bp whole probe
Together with: salmon DNA 0.4 mg/ml
Baseline: random background probes
Reading: higher = stronger binding
All sequences stand within: GCCTAGCAC … GTCTTGATTCGCTTGACGCTGCTG
Sequence	log fluorescence
GACGGTTTCGGACTAGGGACGTGCTAG	4.67 z-score
ATGTATACACACTATAGTGAAGTGCTA	0.504 z-score
GACGATTTCAGTATCGAGGCGTGCTAG	2.76 z-score
TCAGCCCTCACCATCATACTGTGCTAG	-0.156 z-score
GACGGTTTCGACACTTGGGACGTGCTA	4.13 z-score
TCATCTGTGCCTTTTTTACTGTGCTAG	0.55 z-score
TCAATTTTCCAAATGCCACTGTGCTAG	0.575 z-score
GACGGACTGGGGTTACGGGACGTGCTA	-0.633 z-score
TATGTTCACTATTTAAGAACGTGCTAG	0.717 z-score
TTAGATTTCAGTATCGATTAGTGCTAG	8.58 z-score
TTAGATATCAGTTTCGGTTAGTGCTAG	10.5 z-score
CCCTGTGTCCACAGCTGGATGTGCTAG	-0.548 z-score
GACGGACTGGGGTATCGGCACGTGCTA	-0.186 z-score
ATTTAGTATTACCTATTTCTGTGCTAG	1.08 z-score
TCAACTTTCTACGTCTGACTGTGCTAG	1.93 z-score
GACGGTCTCGGTATCGAGACGTGCTAG	1.05 z-score
AGTATGTTCCTTATTTAAGAGTGCTAG	0.293 z-score
ATAGGTTTCGACTTTCGGTTAGTGCTA	10.4 z-score
GACGGACTGGCGACTGGGGACGTGCTA	-0.684 z-score
GACGATATCGGGTATGGAGACGTGCTA	1.73 z-score
TTAGGTATCGCCTATCGGTTAGTGCTA	3.91 z-score
GACCGTCTCCTACTGCTGACGTGCTAG	-0.267 z-score
TCAGCTCTTGTTTTCACACTGTGCTAG	0.821 z-score
TTAGGGTTCGGTTCCGGTTAGTGCTAG	1.05 z-score
GACGGTCTCCCTCTCCTGACGTGCTAG	-0.289 z-score

Sample 4
Target: PABPC1L2, full length, GST fusion (mouse, UniProt A0ABA7IW68)
Technique: RNAcompete
Molecule type: RNA
Matrix: in vitro
Concentration: 20 nM
Notes: 7-mer, probes averaged, single round
Baseline: mean of 7-mers
Reading: higher = stronger binding
Target sequence (chain): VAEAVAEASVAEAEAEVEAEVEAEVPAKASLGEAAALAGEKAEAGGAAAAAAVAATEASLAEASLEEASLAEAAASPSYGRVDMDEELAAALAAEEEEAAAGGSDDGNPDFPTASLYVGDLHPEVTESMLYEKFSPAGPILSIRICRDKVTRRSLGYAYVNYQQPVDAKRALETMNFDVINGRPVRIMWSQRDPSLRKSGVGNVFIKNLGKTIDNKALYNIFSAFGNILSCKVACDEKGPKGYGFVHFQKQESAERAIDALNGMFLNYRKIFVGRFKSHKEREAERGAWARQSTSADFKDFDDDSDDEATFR
Sequence	7-mer Z-score
GCGUGCU	-0.17
UCACCAG	-0.206
AAGUUCU	-0.103
AUGCAAA	0.428
GACUGAU	-0.17
GGGAAAA	3.2
CCAGUCA	-0.289
AUAUCGG	0.126
ACCUGUU	-0.458
CGCGGGG	0.294
GGAUGCC	0.0134
CGCCUUU	-0.282
GAGGUAG	-0.0591
UGGAAAA	4.27
GUUUCAA	-0.336
UAACACU	-0.2

Excerpt of the above (sample 3):
Sequence	log fluorescence
ATTTAGTATTACCTATTTCTGTGCTAG	1.08 z-score
TCAACTTTCTACGTCTGACTGTGCTAG	1.93 z-score
GACGGTCTCGGTATCGAGACGTGCTAG	1.05 z-score
AGTATGTTCCTTATTTAAGAGTGCTAG	0.293 z-score
ATAGGTTTCGACTTTCGGTTAGTGCTA	10.4 z-score
GACGGACTGGCGACTGGGGACGTGCTA	-0.684 z-score
GACGATATCGGGTATGGAGACGTGCTA	1.73 z-score
TTAGGTATCGCCTATCGGTTAGTGCTA	3.91 z-score
GACCGTCTCCTACTGCTGACGTGCTAG	-0.267 z-score
